{"data": "Experimental data of several laboratories", "note": "A part holds a random share of what one study measured. Substitutions count along the parent as printed."}
{"data": "Study 1", "target": "Histone acetyltransferase KAT6A, winged helix 1, GST fusion (KAT6A, Homo sapiens, UniProt Q92794, residues 1-85)", "method": "protein binding microarray", "molecule type": "double-stranded DNA, one strand shown", "medium": "in vitro", "tested at": "not given", "setting": "8-mer, flanks averaged, mean of 2 arrays, mostly near background", "relative to": "not given", "direction": "higher = stronger binding", "Residues (chain)": "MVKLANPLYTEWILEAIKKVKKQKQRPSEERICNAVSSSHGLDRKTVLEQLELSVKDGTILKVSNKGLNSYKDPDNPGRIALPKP"}
{"Sequence": "ACAATTAT", "E-score": 0.061}
{"Sequence": "ACAGAGTG", "E-score": -0.19}
{"Sequence": "ATCGCAGA", "E-score": -0.131}
{"Sequence": "GGACGTCC", "E-score": 0.0207}
{"Sequence": "CAGCCCTA", "E-score": -0.037}
{"Sequence": "AGCGACGA", "E-score": -0.125}
{"Sequence": "AAGTCGAC", "E-score": -0.223}
{"Sequence": "AAATAGTA", "E-score": -0.0397}
{"Sequence": "CCAATGCA", "E-score": -0.172}
{"Sequence": "AGACAAAG", "E-score": -0.165}
{"Sequence": "AACTTCCC", "E-score": -0.117}
{"Sequence": "CAGCGTGA", "E-score": -0.118}
{"Sequence": "CTGTCAGA", "E-score": -0.0184}
{"Sequence": "AAAAGAAA", "E-score": -0.242}
{"Sequence": "CGAGCAAC", "E-score": 0.153}
{"Sequence": "GCGCCGTA", "E-score": 0.439}
{"Sequence": "CCGCCAGG", "E-score": 0.121}
{"Sequence": "ATTGTAAG", "E-score": 0.00432}
{"Sequence": "AACTGAGT", "E-score": -0.129}
{"data": "Study 2", "target": "Sal-like protein 4, full length isoform A (SALL4, Homo sapiens, UniProt Q9UJQ4, residues 1-1053)", "method": "universal PBM", "molecule type": "double-stranded DNA, one strand shown", "medium": "in vitro", "tested at": "600 nM", "setting": "8-mer, flanks averaged, mean of replicates", "direction": "higher = stronger binding", "chain of UniProt Q9UJQ4 (whole entry, looked up)": "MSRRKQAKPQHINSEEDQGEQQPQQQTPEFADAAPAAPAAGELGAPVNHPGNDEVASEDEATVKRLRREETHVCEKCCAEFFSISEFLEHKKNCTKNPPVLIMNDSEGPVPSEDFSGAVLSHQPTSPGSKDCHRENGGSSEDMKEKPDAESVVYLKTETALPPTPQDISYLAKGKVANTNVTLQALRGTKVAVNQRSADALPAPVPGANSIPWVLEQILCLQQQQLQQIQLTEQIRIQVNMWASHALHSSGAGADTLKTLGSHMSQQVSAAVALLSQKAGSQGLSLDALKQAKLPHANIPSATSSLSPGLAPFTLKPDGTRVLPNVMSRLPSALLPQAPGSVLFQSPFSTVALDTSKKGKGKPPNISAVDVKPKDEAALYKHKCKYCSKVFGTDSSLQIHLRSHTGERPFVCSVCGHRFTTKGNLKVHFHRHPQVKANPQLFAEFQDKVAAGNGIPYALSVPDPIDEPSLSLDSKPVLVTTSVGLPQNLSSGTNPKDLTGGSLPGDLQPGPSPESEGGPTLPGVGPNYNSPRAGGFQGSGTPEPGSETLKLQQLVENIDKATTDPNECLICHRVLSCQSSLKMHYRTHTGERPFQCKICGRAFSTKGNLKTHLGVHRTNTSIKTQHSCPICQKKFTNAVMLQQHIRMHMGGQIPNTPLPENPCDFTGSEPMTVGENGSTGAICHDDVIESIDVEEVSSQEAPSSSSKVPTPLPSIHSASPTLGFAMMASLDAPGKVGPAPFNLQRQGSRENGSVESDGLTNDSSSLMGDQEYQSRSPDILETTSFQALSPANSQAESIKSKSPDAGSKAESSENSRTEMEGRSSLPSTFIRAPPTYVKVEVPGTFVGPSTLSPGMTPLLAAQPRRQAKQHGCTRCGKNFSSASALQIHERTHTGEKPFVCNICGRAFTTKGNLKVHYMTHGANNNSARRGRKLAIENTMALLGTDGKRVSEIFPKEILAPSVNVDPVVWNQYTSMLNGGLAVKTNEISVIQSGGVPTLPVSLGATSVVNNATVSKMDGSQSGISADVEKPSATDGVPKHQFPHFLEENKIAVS"}
{"Sequence": "CCGGAGAC", "E-score": -0.23}
{"Sequence": "GGTGAACC", "E-score": -0.197}
{"Sequence": "TCACCCAA", "E-score": 0.0812}
{"Sequence": "ACTACTGC", "E-score": -0.107}
{"Sequence": "AGAACGGG", "E-score": -0.0832}
{"Sequence": "CTCAAGCC", "E-score": -0.28}
{"Sequence": "GTATTGCA", "E-score": 0.0209}
{"Sequence": "ACCACAGC", "E-score": -0.276}
{"Sequence": "CAATACGA", "E-score": 0.198}
{"Sequence": "AGAGTCTG", "E-score": -0.216}
{"Sequence": "TACGAGTA", "E-score": 0.138}
{"Sequence": "TAAAGCAA", "E-score": 0.205}
{"Sequence": "ATGCCTCA", "E-score": 0.0302}
{"Sequence": "CCCCCAAG", "E-score": -0.234}
{"Sequence": "CATGGTTC", "E-score": -0.108}
{"Sequence": "ACGGTCAG", "E-score": -0.107}
{"Sequence": "ATTTTATG", "E-score": 0.314}
{"Sequence": "ATGCGATC", "E-score": -0.00351}
{"Sequence": "CCGAACAC", "E-score": -0.0926}
{"Sequence": "ACACCCTG", "E-score": -0.236}
{"Sequence": "ATAACGAG", "E-score": 0.228}
{"Sequence": "AAACGGTC", "E-score": -0.145}
{"Sequence": "AGGCGCCC", "E-score": -0.393}
{"Sequence": "CGCGTGAA", "E-score": -0.113}
{"Sequence": "ATAAGCTA", "E-score": 0.283}
{"data": "Study 3", "target": "RNA binding protein fox-1 homolog 2, RRM domain, GST-SBP tag (RBFOX2, Homo sapiens, UniProt O43251-10, residues 100-194)", "method": "RNA Bind-n-Seq", "molecule type": "RNA", "medium": "in vitro", "tested at": "365 nM", "setting": "natural RNA segment, single round, ends assumed", "relative to": "no-protein control", "direction": "higher = stronger binding", "all sequences stand within": "GGGAGUUCUACAGUCCGACGAUC … UGGAAUUCUCGGGUGCCAA", "Target sequence (chain)": "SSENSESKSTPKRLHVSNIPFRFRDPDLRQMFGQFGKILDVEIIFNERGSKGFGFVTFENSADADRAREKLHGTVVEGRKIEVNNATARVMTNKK"}
{"Sequence": "GGUCAUUUCCUCCCAGACACUGUUUUGCCCCAGCGCCCUUCGGAAUCACAGUCCCGCCGUGUCUUAGAAACUGCUUUGGCCGAUGCAAACAGCCCCCUACCCGUCCCCCU", "RBNS enrichment (R)": 0.41}
{"Sequence": "GGGUUUUUUGCGUCCUUUUGGAAUCACAGAAAUAAACAAGUAGGUUUCAGUUGUCUUCAGAGACAAAUGUUACUUAAUCAGGAAUACAAAGUACAGAUUUUUUACAUUUU", "RBNS enrichment (R)": 0.474}
{"Sequence": "CUAUUUUGAUAAUACAUAUUAUUUACCCCACUGUAACAUCCUGUAAACUAAAUGCGUUUUUAAGCAAUUUUUAAGACUUGUAAUUACCCUAAAAAUAAGGUUUAUUAAGC", "RBNS enrichment (R)": 0.443}
{"Sequence": "AAUCAAUUUAAUGGUCCUUUAAAAUGUCUGUGUAUUAAAAAUUUAAGAAUACCACACUUUAAUAUUAAAUAUUCAUAAGGUCUAGUAUCUUGAUAAUAAUGUAGAUGUUU", "RBNS enrichment (R)": 0.442}
{"Sequence": "UGACUUAUCAGUGCCCAUCACUAUCUGGCGUUCUGAAAGUCCCAUAGAAAAGUGUCAGGAAAGCAACGUCAUCAAGGAUAUAAAGAGAAAGGAGAAAGAGCAAGAUGAGG", "RBNS enrichment (R)": 0.715}
{"Sequence": "UAAGGUAACUUUUAAAAAACACCUUUUAUAGGUGGAUCCAGCAGUCUGGCAACGCCCACAGUUACCACAACACAGAAAACUGAUCGUGCUAUAAAAUGGACGCUAAACUA", "RBNS enrichment (R)": 0.245}
{"Sequence": "UUGUAAAGUGUCCACUGCGCCGUUCGUUUAUUUCCCUCGAUUUUCUUCUUCCUCUCGCCUUCCUUCUUCGCAGCCCUCCUGUCCCGGUUCAGGCUUGCUGUCUCUUGUCC", "RBNS enrichment (R)": 1.68}
{"Sequence": "UUACCCUGCCAGUCCCCUGCCUCACUCCACCAUGAAGGUCUCUGCUUUCCUGUGACUUGAUUGGGAUACAGGCAUUUAACUUUGGAAGGCUAGUUUGGUGCCUGCUCUGG", "RBNS enrichment (R)": 0.524}
{"data": "Study 4", "target": "ABI1, truncated, D143A, DHFR fusion (Arabidopsis thaliana)", "method": "DHFR PCA, deep sequencing", "medium": "yeast", "setting": "methotrexate growth selection, single substitutions", "added": "(+)-ABA 2500 µM", "relative to": "wild-type fitted maximum", "direction": "higher = stronger binding", "parent": "PYL1, truncated, DHFR fusion (Arabidopsis thaliana); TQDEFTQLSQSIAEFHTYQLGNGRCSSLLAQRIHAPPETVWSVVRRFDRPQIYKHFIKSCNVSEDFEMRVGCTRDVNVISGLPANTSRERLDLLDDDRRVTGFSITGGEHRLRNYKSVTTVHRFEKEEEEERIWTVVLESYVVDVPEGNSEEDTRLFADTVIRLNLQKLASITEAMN; partner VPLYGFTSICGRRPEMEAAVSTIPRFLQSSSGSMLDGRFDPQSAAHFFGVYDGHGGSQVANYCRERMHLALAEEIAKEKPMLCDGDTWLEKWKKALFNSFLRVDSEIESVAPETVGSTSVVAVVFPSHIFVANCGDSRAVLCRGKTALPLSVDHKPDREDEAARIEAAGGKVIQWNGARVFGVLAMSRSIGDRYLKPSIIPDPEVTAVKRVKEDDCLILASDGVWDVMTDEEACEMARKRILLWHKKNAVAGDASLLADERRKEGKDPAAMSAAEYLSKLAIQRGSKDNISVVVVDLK"}
{"Change": "F103T", "relative binding score [%]": 52}
{"Change": "N149M", "relative binding score [%]": 65}
{"Change": "S117H", "relative binding score [%]": 60.1}
{"Change": "S104L", "relative binding score [%]": 80.7}
{"Change": "R45S", "relative binding score [%]": 93.6}
{"Change": "E127A", "relative binding score [%]": 94.7}
{"Change": "Y115G", "relative binding score [%]": 6.34}
{"Change": "S9Y", "relative binding score [%]": 95.4}
{"Change": "C60W", "relative binding score [%]": 30.6}
{"Change": "E14V", "relative binding score [%]": 89.3}
{"Change": "R98Y", "relative binding score [%]": 100}
{"Change": "L164Y", "relative binding score [%]": 95.1}
{"Change": "L91I", "relative binding score [%]": 78.9}
{"note": "Some of these lines once more (study 3):"}
{"Sequence": "UGACUUAUCAGUGCCCAUCACUAUCUGGCGUUCUGAAAGUCCCAUAGAAAAGUGUCAGGAAAGCAACGUCAUCAAGGAUAUAAAGAGAAAGGAGAAAGAGCAAGAUGAGG", "RBNS enrichment (R)": 0.715}
{"Sequence": "AAUCAAUUUAAUGGUCCUUUAAAAUGUCUGUGUAUUAAAAAUUUAAGAAUACCACACUUUAAUAUUAAAUAUUCAUAAGGUCUAGUAUCUUGAUAAUAAUGUAGAUGUUU", "RBNS enrichment (R)": 0.442}
{"Sequence": "GGGUUUUUUGCGUCCUUUUGGAAUCACAGAAAUAAACAAGUAGGUUUCAGUUGUCUUCAGAGACAAAUGUUACUUAAUCAGGAAUACAAAGUACAGAUUUUUUACAUUUU", "RBNS enrichment (R)": 0.474}
{"Sequence": "GGUCAUUUCCUCCCAGACACUGUUUUGCCCCAGCGCCCUUCGGAAUCACAGUCCCGCCGUGUCUUAGAAACUGCUUUGGCCGAUGCAAACAGCCCCCUACCCGUCCCCCU", "RBNS enrichment (R)": 0.41}
